Published values collected from several papers.
Parts stem from different laboratories: compare values within a part only. Changes are numbered by the printed parent chain.

Series 1
Target: CREB3L1, bZIP domain (human)
Technique: DHFR protein complementation
Sample: yeast
Setting: single substitutions, most at no-binding floor
Baseline: wild-type JUN-FOS pair
Reading: higher = stronger binding
Quantity: binding fitness
Starting sequence: JUN, bZIP domain (human); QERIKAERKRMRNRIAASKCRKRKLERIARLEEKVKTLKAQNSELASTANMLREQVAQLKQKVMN; partner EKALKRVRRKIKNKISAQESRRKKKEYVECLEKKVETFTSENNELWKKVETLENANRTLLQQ
A40Q: -1.31 natural log
E44V: -1.42 natural log
L52I: -1.47 natural log
I28F: -1.53 natural log
S43P: -1.49 natural log
K36R: -1.37 natural log
E44Q: -1.52 natural log
L38C: -1.43 natural log
A49Y: -1.44 natural log

Series 2
Target: RNA binding protein fox-1 homolog 2, RRM domain, GST-SBP tag (RBFOX2, Homo sapiens, UniProt O43251-10, residues 100-194)
Technique: RNA Bind-n-Seq
Form: RNA
Sample: in vitro
Tested at: 365 nM
Setting: natural RNA segment, single round, ends assumed
Baseline: no-protein control
Reading: higher = stronger binding
Quantity: RBNS enrichment (R)
Target sequence (chain): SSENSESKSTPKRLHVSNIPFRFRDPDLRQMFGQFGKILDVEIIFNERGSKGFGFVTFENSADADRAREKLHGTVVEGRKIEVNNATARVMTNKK
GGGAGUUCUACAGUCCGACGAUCCAGCAGCGCACGCCUCCGAAGCCUGCGGCCUCGCUUGAAGGAGGGCGUCGCCGGAAACCCAGGGAACCUCUCUGAAGUGACACCUCACCCCUACACACCGUCCGUUCACCUGGAAUUCUCGGGUGCCAA: 0.696
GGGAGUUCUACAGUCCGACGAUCGAGCGUCCAACUGUAUAUUUUUUACUUUUAUAGAUUUUAAAACUGAUCCUUUAUAUGUGUUUGGAGCUAUGAUAAGUUUUAUGGCAAGCAGUUGGUAUUGUUAACUUUUUUGGAAUUCUCGGGUGCCAA: 0.818
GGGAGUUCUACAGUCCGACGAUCCAGCCCGAGGCACUGCUACGCCAGCAGCUGCCACAUGGGAUGGUGGCUCAGGCGCUCCCUCCAGGAUUCUGCCCCUGCCUGUCCACAGACUCCUUUGUGCUGGAACCUGGUGGAAUUCUCGGGUGCCAA: 0.835
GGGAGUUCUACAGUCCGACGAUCGAUACCUUUAAGCCAGUGAAGGAUACUUGCGAUAGAAUCAUCCGCAACUCAGUGGCCAUUCUUCUGCCUUCCCAGACCUUAGUUUUAUAAAGCAUUGUCUGUUCCAGAGUUGGAAUUCUCGGGUGCCAA: 0.4
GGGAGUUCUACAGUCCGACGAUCGCCAUGGCAUUUCAUGAUAUGUGAUUAGGAGCUCGUGUGCACCCUCAUAUCCAUUCCAUGAGAAGGUGAGGGAUACCUCCUUGGGGCUGUUUGUAUCAUGGACUGUCAUGUGGAAUUCUCGGGUGCCAA: 0.696
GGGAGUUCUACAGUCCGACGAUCGAGAGUUGGAGUCAAAGCCAUUGUUAUCUUUUGGUGACACCCUUAAAUUUUAAGUCUUCCAGUCUUCCAUGUGAACUUUAGGCCCAAAGUUUCUUAUGUAUCACACAUCCUGGAAUUCUCGGGUGCCAA: 0.46
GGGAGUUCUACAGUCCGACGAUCCCAUAUUUGUAACUAUCAACUUUUAAAACUUUUAACGUUUUUGUUACAUGCAUUGUAAUUCUGCUUUGUCUAUAAGAUAUGGUCAAGUACAGCUCUGUGAAAGUUCUGAUUGGAAUUCUCGGGUGCCAA: 0.304
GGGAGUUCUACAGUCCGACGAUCGUGUCCUUUUCUUUUGCUUCAGGCUAAGAGCUGCCUCGCUCUUUGUCCCCCCAUUAGGAUUCUAUUACAUAUGCAAUUGUAGGUUCAACCUGUCCCUUUCCCUGCCAGCAUGGAAUUCUCGGGUGCCAA: 0.571

Series 3
Target: RING finger protein unkempt homolog, zinc fingers 1-6, GST-SBP tag (UNK, Homo sapiens, UniProt Q9C0B0, residues 30-357)
Sequence of UniProt Q9C0B0 (30-357, looked up): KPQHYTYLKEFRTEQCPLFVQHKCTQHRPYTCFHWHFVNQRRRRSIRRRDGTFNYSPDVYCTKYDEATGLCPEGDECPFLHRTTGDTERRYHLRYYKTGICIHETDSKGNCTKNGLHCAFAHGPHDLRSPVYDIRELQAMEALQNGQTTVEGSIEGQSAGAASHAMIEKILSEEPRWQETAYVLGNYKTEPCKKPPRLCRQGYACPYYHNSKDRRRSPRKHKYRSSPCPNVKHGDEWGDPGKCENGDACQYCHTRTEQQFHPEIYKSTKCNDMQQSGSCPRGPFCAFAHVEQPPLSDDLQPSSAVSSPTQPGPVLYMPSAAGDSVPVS
Technique: RNA Bind-n-Seq
Form: RNA
Sample: in vitro
Tested at: not given
Setting: RNA with constant flanks, human and mouse sites, ends assumed
Baseline: input RNA pool
Reading: higher = stronger binding
Quantity: bound/input enrichment
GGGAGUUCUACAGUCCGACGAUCGGAGCGGGUCUGGGGCUCAGCCGGCGGCCCGAAGGUGCGGCGCCAUGAAGCUGUACAGCCUUAGUGUCCUUUACAAAGGCGAUCCGAAAGCGGUGCUGCUCAAGGCCGCGUACGACGUGUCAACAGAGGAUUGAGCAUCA: 0.116 ratio
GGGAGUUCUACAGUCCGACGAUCAUGAACUUUCAGGCAACACUGUUAUUAAAUGACCCAGACAGACCUGUCCUUAUAUAAUUGUAGCUUUUCAGCACAAGGAUCCUAAAAGAUGGCAGCACCCACUUCUAAAAUCAUACUUGACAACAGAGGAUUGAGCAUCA: 0.134 ratio
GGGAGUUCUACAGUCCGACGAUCAGAGUGCUGGGAUUAAAGCAGAUAUAAUUUCUACAGUAGAGUUUAAUCAUUCUGGAGAAUUACUAGCCACAGGAGAUAAAGGUGGGAGAGUUGUCAUCUUUCAACAAGAGCAGGAGAACACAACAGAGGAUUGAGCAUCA: 0.475 ratio
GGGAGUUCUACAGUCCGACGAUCAAAAAACCCCGAUUUUAGAUGUGAUAUUUAGGCUUUCAUUCCAGUUUGUUUUGUUUUUUUGUUUAGAUACCAAUCUUUUAAAUUCUUGCAUUUUAGUAAGAAAGCUAUCUUUUUAUGGAUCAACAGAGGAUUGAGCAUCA: 11.6 ratio
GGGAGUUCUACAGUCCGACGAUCGAGCUUAUCUGCAAGAUGGCUGCCUGCCCAGAGAAGCUAGACCUGAACCUGGCGGCAGCUGUGCAUAAGGAGAUGUUCAUCAUGGUGCAAGAAGAGCGGCGUCUACGAAAGGCCCUGCUGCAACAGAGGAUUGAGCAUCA: 0.112 ratio
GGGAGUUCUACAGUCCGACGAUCAAAUUCAAAGGCCCCUUCACAGAUGUAGUCACUACAAAUCUUAAAUUGCAAAAUCCAUCGGAUAGAAAAGUGUGUUUCAAAGUGAAGACUACAGCACCUCGCCGGUACUGUGUGCGGCCCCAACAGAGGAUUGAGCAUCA: 0.308 ratio
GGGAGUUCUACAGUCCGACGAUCUGGAUGUACACGUUCUCACGAGCUGCGAUUCUCCUUAGCAUUGUAUACUUCUAUUCUUCUUUUAGUCGGUUUAUCAUGGUAAUGGGAGCCAUGCUACUGGUUUAUUUACACCAAGCUGGACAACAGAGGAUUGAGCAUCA: 1.55 ratio
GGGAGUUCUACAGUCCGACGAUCUUCAGUGCCUCAAUUGAUGACAAGGUUGGUAGACAUUUUAAAAUGAUCGACAAUGUCUAUAAUCCUGCAGCCAUUGCUGUUGAUUGGGUGUACAAGACCAUCUACUGGACUGAUGCGGCUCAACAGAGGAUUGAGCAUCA: 0.131 ratio

Single results of other studies
PhoQ, residues 284 288 289 292 302 303 SSLVEF
fold induction (PhoP, residues 12 14 15 18 19 YHFSH (Escherichia coli, UniProt P23836); Sort-seq, item: YFP reporter; E. coli; PhoQ-PhoP variant library, added: 10 µM Mg2+; baseline: high Mg2+ state, higher = stronger signaling): 2.55
